Measurements of several laboratories.
Every numbered part comes from another study and shows a few of its results, in no order.
Sequence of UniProt P11802 (whole entry, looked up): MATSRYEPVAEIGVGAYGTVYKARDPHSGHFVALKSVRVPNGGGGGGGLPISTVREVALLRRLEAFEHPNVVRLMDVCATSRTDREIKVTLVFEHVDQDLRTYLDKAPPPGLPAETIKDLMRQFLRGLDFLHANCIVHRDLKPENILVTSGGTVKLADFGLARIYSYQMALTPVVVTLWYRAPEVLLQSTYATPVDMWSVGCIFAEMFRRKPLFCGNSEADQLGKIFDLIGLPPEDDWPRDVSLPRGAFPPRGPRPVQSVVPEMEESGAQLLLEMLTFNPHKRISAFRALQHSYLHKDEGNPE
Sequence of UniProt Q9UIK4 (whole entry, looked up): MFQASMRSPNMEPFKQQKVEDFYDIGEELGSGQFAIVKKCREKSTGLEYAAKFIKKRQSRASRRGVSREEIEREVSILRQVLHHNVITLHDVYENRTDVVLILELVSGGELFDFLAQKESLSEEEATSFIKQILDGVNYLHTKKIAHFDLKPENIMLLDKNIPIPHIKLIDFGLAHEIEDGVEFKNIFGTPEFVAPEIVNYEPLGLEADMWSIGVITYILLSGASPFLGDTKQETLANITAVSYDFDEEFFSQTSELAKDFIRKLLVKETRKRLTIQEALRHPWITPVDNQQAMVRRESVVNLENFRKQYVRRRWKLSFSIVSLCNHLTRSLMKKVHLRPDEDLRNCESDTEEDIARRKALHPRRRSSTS
Sequence of UniProt Q13557 (whole entry, looked up): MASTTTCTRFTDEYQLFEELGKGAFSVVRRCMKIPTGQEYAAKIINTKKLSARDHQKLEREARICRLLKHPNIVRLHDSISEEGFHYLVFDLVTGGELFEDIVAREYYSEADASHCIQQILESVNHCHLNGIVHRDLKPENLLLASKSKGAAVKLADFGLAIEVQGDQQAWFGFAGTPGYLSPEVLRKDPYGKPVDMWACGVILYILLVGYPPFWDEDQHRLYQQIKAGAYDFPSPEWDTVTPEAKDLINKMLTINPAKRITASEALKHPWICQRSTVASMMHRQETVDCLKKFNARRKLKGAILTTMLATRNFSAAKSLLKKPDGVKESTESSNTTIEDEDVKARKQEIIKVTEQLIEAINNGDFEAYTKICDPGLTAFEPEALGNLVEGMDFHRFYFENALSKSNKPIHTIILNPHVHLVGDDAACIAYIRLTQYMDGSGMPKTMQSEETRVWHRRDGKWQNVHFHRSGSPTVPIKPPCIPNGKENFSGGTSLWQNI
Sequence of UniProt Q96RR4 (whole entry, looked up): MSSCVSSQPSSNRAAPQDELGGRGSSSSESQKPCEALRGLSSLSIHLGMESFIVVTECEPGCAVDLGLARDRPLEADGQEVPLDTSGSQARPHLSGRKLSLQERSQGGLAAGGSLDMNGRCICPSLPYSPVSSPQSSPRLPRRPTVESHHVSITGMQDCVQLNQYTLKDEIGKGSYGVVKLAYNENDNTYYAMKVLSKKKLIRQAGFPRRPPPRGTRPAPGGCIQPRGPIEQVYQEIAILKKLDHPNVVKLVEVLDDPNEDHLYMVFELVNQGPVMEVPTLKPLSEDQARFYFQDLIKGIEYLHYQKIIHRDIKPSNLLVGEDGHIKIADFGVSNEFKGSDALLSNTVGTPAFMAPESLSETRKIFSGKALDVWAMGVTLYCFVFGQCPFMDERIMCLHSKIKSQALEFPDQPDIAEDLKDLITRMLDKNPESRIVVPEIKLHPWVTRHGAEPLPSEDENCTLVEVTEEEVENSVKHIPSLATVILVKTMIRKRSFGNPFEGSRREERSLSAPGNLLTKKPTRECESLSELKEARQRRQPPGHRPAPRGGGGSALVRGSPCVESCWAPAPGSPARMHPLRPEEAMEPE
Sequence of UniProt Q15831 (whole entry, looked up): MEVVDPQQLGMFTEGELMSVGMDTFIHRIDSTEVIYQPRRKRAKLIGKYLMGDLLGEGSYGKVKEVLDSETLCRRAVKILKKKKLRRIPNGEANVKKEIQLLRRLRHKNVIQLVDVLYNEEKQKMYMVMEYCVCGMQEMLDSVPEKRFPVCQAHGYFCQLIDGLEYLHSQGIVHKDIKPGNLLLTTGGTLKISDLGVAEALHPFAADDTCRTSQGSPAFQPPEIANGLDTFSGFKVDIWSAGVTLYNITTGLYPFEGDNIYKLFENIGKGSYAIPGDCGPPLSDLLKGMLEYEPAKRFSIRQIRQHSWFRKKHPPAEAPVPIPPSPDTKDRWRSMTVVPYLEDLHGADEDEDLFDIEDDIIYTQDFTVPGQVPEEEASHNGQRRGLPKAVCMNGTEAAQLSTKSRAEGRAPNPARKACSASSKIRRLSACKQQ
Sequence of UniProt P45984 (whole entry, looked up): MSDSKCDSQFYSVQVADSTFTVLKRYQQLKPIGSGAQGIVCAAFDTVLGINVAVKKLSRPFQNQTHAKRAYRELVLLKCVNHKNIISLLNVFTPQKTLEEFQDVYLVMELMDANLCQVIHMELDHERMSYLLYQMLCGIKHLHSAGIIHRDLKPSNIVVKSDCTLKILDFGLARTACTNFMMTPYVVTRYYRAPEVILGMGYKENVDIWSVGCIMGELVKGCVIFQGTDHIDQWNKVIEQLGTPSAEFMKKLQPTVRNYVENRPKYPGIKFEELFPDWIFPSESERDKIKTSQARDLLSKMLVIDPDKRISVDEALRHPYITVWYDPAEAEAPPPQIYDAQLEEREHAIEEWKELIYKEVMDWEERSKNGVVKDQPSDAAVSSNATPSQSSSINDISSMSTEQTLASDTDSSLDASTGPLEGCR
Sequence of UniProt P36897 (whole entry, looked up): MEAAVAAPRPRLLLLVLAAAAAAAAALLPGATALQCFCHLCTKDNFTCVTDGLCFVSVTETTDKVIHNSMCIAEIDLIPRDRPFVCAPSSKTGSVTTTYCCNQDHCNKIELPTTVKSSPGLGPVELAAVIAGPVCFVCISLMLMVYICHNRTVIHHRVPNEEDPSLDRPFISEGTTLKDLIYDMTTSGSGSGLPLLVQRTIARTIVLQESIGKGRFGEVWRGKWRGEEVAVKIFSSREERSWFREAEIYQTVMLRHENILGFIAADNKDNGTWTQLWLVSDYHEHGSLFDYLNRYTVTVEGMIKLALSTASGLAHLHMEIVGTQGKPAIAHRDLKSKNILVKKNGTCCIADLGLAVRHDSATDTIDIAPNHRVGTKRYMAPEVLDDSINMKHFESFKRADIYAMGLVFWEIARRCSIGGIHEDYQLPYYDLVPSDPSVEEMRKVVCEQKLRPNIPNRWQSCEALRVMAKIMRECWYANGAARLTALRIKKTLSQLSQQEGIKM
Sequence of UniProt O14920 (whole entry, looked up): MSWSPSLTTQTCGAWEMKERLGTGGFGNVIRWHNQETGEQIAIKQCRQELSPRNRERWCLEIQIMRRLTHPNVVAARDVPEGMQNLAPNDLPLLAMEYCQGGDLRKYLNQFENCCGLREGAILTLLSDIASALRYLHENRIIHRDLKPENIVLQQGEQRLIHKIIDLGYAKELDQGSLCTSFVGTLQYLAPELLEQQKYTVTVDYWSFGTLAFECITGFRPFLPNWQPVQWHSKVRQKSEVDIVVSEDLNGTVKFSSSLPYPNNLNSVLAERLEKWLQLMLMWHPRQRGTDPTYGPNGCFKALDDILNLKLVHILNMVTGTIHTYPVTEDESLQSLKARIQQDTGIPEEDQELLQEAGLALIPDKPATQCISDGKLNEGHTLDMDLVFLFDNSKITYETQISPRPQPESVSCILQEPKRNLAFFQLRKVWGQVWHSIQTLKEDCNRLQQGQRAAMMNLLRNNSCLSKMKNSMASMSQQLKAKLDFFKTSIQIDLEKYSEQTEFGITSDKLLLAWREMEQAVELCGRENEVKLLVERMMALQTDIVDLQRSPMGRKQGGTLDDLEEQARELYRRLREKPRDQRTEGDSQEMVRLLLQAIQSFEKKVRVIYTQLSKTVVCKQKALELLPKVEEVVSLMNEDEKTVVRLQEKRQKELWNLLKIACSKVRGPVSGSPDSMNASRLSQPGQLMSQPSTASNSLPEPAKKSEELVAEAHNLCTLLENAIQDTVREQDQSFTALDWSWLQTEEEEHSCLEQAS

Set 1
Cell line: HEK-293T
Observed: pseudovirus infection
Method: FDA-approved drug library counter-screen
Organism: VSV pseudotyped with VSV-G
Tested at: 10 µM
Time: 16 h
Baseline: vehicle-treated
The GFP-positive cells of C[Se]CC[C@H](N)C(=O)O is reported as 119%.
With Cc1c(O)cccc1C(=O)N[C@@H](CSc1ccccc1)[C@H](O)CN1C[C@H]2CCCC[C@H]2C[C@H]1C(=O)NC(C)(C)C the GFP-positive cells was 112%.
N=C1CCCN1Cc1nc(O)nc(O)c1Cl gave a GFP-positive cells of 118%.
CC1(C)O[C@@H]2C[C@H]3[C@@H]4CCC5=CC(=O)CC[C@]5(C)[C@@]4(F)[C@@H](O)C[C@]3(C)[C@]2(C(=O)CCl)O1 has a GFP-positive cells of 113%.
The GFP-positive cells of CC(=O)OCC(COC(C)=O)OC(C)=O is reported as 130%.
COC(=O)C1=C(C)NC(C)=C(C(=O)OCC(C)C)C1c1ccccc1[N+](=O)[O-] (stereo not drawn) gave a GFP-positive cells of 68.3%.
C#CCN(C)Cc1ccccc1 has a GFP-positive cells of 125%.
NC12CC3CC(CC(C3)C1)C2 gave a GFP-positive cells of 93.2%.
For NS(=O)(=O)Cc1noc2ccccc12, the GFP-positive cells was 86%.

Set 2
SMILES: COc1ccc2c(c[n+](C)c3c4cc5c(cc4ccc23)OCO5)c1OC
Observed: enzyme activity
Mode: inhibitor
Tested at: 0.5 µM
Baseline: control
TGFBR1 (Homo sapiens, UniProt P36897) — remaining activity: 98.5%.
It gave 78.9% for remaining activity (PRKCA (Homo sapiens, UniProt P17252)).
The remaining activity was 87.5% (Cyclin-dependent kinase 4, with cyclin D1 (CDK4, Homo sapiens, UniProt P11802)).
The remaining activity was 82.1% (STK11 (Homo sapiens, UniProt Q15831)).
It gave 90.4% for remaining activity (CAMK2D (Homo sapiens, UniProt Q13557)).
It gave 103% for remaining activity (IKBKB (Homo sapiens, UniProt O14920)).
It gave 102% for remaining activity (MAPK9 (Homo sapiens, UniProt P45984)).
The remaining activity was 100% (PRKACA (Homo sapiens, UniProt P17612)).
CAMKK2 (Homo sapiens, UniProt Q96RR4) — remaining activity: 98.2%.
The remaining activity was 93.9% (DAPK2 (Homo sapiens, UniProt Q9UIK4)).

Set 3
Cell line: HaCaT
Tested at: 100 µM
Time: 36 h
For CCC(=O)O[C@H]1CC[C@H]2[C@@H]3CC[C@H]4CC(=O)[C@H](C)C[C@]4(C)[C@H]3CC[C@]12C, the viability was 56.9%.
With O=C(O)[C@@H]1[C@H](C(=O)O)[C@H]2CC[C@@H]1O2 the viability was 90.9%.
With C[C@@H]1C[C@@H]([C@H](O)CC2CC(=O)NC(=O)C2)C(=O)[C@@H](C)C1 the viability was 13.7%.
For C=CC[C@]1(O)CC[C@H]2[C@@H]3CCC4=CC(=O)CCC4=C3C=C[C@@]21C, the viability was 17.9%.
C[C@]12CC[C@H](O)CC1=CC[C@@H]1[C@@H]2CC[C@]2(C)C(=O)CC[C@@H]12 gave a viability of 81.6%.
C#C[C@]1(O)C=C[C@H]2[C@@H]3CCC4=CC(=O)CC[C@@H]4[C@H]3CC[C@@]21CC has a viability of 85.8%.
CC(C)NCC(O)c1ccccc1Cl (stereo not drawn) has a viability of 76.5%.
CC(C)C[C@H](CN)CC(=O)O gave a viability of 85.8%.
N#Cc1nn(-c2c(Cl)cc(C(F)(F)F)cc2Cl)c(N)c1[S+]([O-])C(F)(F)F (stereo not drawn) has a viability of 12.5%.

Set 4
Target: Delta-type opioid receptor (OPRD1, Homo sapiens, UniProt P41143)
Sequence of UniProt P41143 (whole entry, looked up): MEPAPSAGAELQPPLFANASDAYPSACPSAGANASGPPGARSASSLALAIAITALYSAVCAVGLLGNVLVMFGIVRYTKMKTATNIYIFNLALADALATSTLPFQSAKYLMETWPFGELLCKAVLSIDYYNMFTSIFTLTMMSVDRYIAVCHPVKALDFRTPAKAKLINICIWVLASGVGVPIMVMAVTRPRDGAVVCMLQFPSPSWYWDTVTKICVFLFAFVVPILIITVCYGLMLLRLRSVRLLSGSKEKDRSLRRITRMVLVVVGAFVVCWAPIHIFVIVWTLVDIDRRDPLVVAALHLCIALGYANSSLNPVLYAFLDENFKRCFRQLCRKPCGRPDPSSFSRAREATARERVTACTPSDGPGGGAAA
Observed: ligand displacement
Tested at: 10 µM
For CCOc1ccc(S(=O)(=O)Nc2ccc(Cl)cc2C#Cc2cnc(C(=O)O)cc2OC)c2ncccc12, the inhibition was -8.88%.
CCC(=NO)C(C)=Cc1ccc(F)c(C)c1 has an inhibition of 2.53%.
With CC1CCN(c2ccnc(NCc3cn(C)cn3)n2)CC1 the inhibition was 4.65%.
For O=S(=O)(NC1CCC(c2cc(F)ccc2F)(S(=O)(=O)c2ccc(Cl)cc2)CC1)C(F)(F)F (stereo not drawn), the inhibition was 20%.
O=C(Nc1ccc(Oc2ccc(F)cc2)cc1)N1CCc2ncccc2[C@H]1c1ccc(F)cc1 gave an inhibition of 32.7%.
O=C(NCCCC1CCCCC1)c1ccc(CNC(=O)c2cnn(-c3ccccc3)c2C(F)(F)F)cc1 gave an inhibition of 12.9%.
COc1cc(-c2cn(C3CCc4c(F)cccc4N(CC(F)(F)F)C3=O)nn2)ccc1-n1cnc(C)c1 (stereo not drawn) has an inhibition of 18.2%.
CN(C)C(=O)c1sc2nc(N3CCC(S(C)(=O)=O)CC3)cc(C(F)(F)F)c2c1N has an inhibition of 8.58%.
With CC1=C(C#N)C(c2ccc3[nH]nc(C)c3c2)C(C#N)=C(C)N1 the inhibition was 16.9%.
Cc1c(NC(=O)c2cc(C(N)=O)nc3cc(F)ccc23)c(C(F)(F)F)nn1Cc1ccc(C#N)cc1 has an inhibition of -13.1%.
For COc1cc(N[C@@H]2CCCC[C@]2(O)C(F)(F)F)ccc1F, the inhibition was 14.4%.
CNC(=O)Nc1ccc2c(c1)CC[C@]21OC(=O)N(CC(=O)N(Cc2ccc(F)cc2)[C@@H](C)C(F)(F)F)C1=O gave an inhibition of -2.53%.
For CC[C@H](CC(=O)O)n1c(=O)c2ncccc2n(Cc2cn(C)c3cc(C)cc(C)c23)c1=O, the inhibition was 9.83%.
O=C(NS(=O)(=O)c1ccc(NCC2CCOCC2)c([N+](=O)[O-])c1)c1ccc(N2CCN(Cc3ccc(C(F)(F)F)cc3-c3ccc(Cl)cc3)CC2)cc1Oc1cnc2[nH]ccc2c1 has an inhibition of -3.92%.
The inhibition of C[C@H](c1ccc(F)cc1)N(Cc1cccc(C(=O)O)c1)C(=O)c1cnc2ccccc2c1 is reported as -1.72%.
With Cn1cc(Cl)c2c(Oc3c(F)cc(Nc4cc(Cl)nc(N)n4)cc3F)ccnc21 the inhibition was -5.39%.
Cc1ccccc1Oc1cc(-n2c(=O)cc(C(F)(F)F)[nH]c2=O)c2ccccc2c1Cl gave an inhibition of 14.5%.

For quick reference, copied from above (set 3):
C[C@]12CC[C@H](O)CC1=CC[C@@H]1[C@@H]2CC[C@]2(C)C(=O)CC[C@@H]12 gave a viability of 81.6%.
C#C[C@]1(O)C=C[C@H]2[C@@H]3CCC4=CC(=O)CC[C@@H]4[C@H]3CC[C@@]21CC has a viability of 85.8%.
CC(C)C[C@H](CN)CC(=O)O gave a viability of 85.8%.
With C[C@@H]1C[C@@H]([C@H](O)CC2CC(=O)NC(=O)C2)C(=O)[C@@H](C)C1 the viability was 13.7%.
For CCC(=O)O[C@H]1CC[C@H]2[C@@H]3CC[C@H]4CC(=O)[C@H](C)C[C@]4(C)[C@H]3CC[C@]12C, the viability was 56.9%.
